Results pooled from the literature.
Numbered parts are unrelated; each lists some results of a single study.

Study 1
Target: TAR DNA-binding protein 43, full length, His tag (TARDBP, Homo sapiens, UniProt Q13148, residues 1-414)
Technique: RNA Bind-n-Seq
Form: RNA
Matrix: in vitro
Concentration: 20 nM
Notes: 6-mer, flanks averaged, single round
Together with: 150 mM KCl
Reference: input library
Reading: higher = stronger binding
| Strand | 6-mer enrichment (R) |
| --- | --- |
| UAUUCC | 0.566 |
| ACUUGG | 0.901 |
| CUGCUC | 0.601 |
| UAAGGA | 0.844 |
| UCCAAA | 0.6 |
| CGUCUG | 0.783 |
| UAGUCG | 0.776 |
| AAGGCG | 1.52 |
| GCGUAU | 0.906 |
| GGACAA | 1.12 |
| AUGAUA | 0.69 |
| CGGAGU | 1.29 |
| AUUUUG | 0.719 |
| AUUUGC | 0.657 |
| UUUGGC | 0.732 |
| CGAGGC | 1.46 |
| CUUCCG | 0.593 |
| CGCUAA | 0.64 |
| CUGUUG | 0.77 |
| UGGACU | 0.816 |

Study 2
Target: RNA binding protein fox-1 homolog 2, RRM domain, GST-SBP tag (RBFOX2, Homo sapiens, UniProt O43251-10, residues 100-194)
Technique: RNA Bind-n-Seq
Form: RNA
Matrix: in vitro
Concentration: 365 nM
Notes: natural RNA segment, single round, ends assumed
Reference: no-protein control
Reading: higher = stronger binding
Constant ends, left off below: GGGAGUUCUACAGUCCGACGAUC … UGGAAUUCUCGGGUGCCAA
Residues (chain): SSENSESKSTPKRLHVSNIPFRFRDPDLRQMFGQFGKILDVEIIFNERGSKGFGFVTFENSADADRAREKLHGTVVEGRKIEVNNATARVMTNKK
| Strand | RBNS enrichment (R) |
| --- | --- |
| AACGUCCCAGCAGUCUUGGUAAAAGGAGGGAGCCUGCUGAGCCAGGAGGGAGAAAAGAAGAUUGACCAGCUUGCUAGAAAAAUACUUAGCUUUUCUUUUUCUUUUUUUGU | 0.868 |
| GUAGUUGUUUAACCAUCAUAUUUCUCUUUAAAGUACACAAAAUUCUUGGAUCUGGAAAGAUAACUCAACAGUCAAGAGUACUGGUUGUUCUUCCCCAAGGACCAAGGUUC | 0.587 |
| UCCCAAACUAGUGCAUGUAUAAAGUGGGAGAGCAGAGGGGGUUAAUAUGUAGAUGGCCAACCGACUUUUUAAUAUUUUGUAAAUAAAUUGGGAUUCUGUGUGUCCUCUGU | 45.1 |
| UGGCCUGGCCUCACUGCUUUCAAGGACACAGAUGUCUGCUACCCCUCUUGAACUUGGGUGGGGAACCCCACCCAAAAGCCCCCUUGUUAGCUCUUUGGCAAUUCUCCUUC | 0.502 |
| UGGCACAGUGUGUCUGCUAGCUGCUUCCACACCCCUUAGCCAUGUUAUCUGUAGAGUACCGGAUAGUGUUUGCUUUUUCCUCCCAAGCUGACAGAAGCUGGGCAUCAGUG | 0.688 |
| GAAUGUGUUUGAACAUGUUUUGAGAUUUUUUUAAAAUAAAUUAUUAUUUGACAACAAUCCAAAAAAAUACGGCUUUUCCAAUGAUGAAAUAUAAUCAGAAGAUGAAAAAU | 0.677 |
| AGGUUUGAUGUGGAAUCAUGGCUGCAGUGAUAUGUUUUUAUCAGCGCUUGGUGGUUUUAAAGUGCAUGCUAUUUUAUUAUCUUCUUCUGAAUAAAAUGUAUUUACUCAAA | 12.5 |
| UGGCCUCUUGUGAAGCUCAUGAAACUUUAACAAGUGUUUGACCUUACAGCUUCCUCUGGGAGGUCGUGUAGACCCAGUGGGCAAGCAGGACAAGGGCCCAGAACUGAAAC | 0.267 |
| UACUUUAGGUGAAGGAGCUUUUGGAAAAGUUGUGGAGUGCAUCGAUCAUAAAGGGGGAGGUAGACAUGUAGCAGUAAAAAUAGUUAAAAAUGUGGAUAGAUACUGUGAAG | 1.9 |
| UCUGGGGAAGGAAAGGAGACUAGAGCAGCUGGUGUGCUCACCCCUCCCUAGUCACCUCCAUUAACCACAGACUAUGUAGCGCUGGCCCUAGCCUCUGGCAGAGCCUGUUC | 0.227 |
| CCUUAAACAGCUAGCAUGAAACAGUUUUGUCGUGGCCACCAGGCUUCUGUGGGAACAGUCCUUCUCUGGCUGGCUAGCUAGGCACAGCUACGGCACUGGAAAGAGUAGAG | 4.85 |
| CUUAGAAAGAGUCAUAAGAAAAAAAAAAAGACAUUUUAUUGUAAAUAACUUACAAGUGAAAUUAAGAAAACAUAAGAUUUAGUCUUACAGUUUCUAAAUAUAUGAUUUGU | 0.599 |

Study 3
Target: PABPC1L2, full length, GST fusion (mouse, UniProt A0ABA7IW68)
Technique: RNAcompete
Form: RNA
Matrix: in vitro
Concentration: 20 nM
Notes: 7-mer, probes averaged, single round
Reference: mean of 7-mers
Reading: higher = stronger binding
Construct (chain): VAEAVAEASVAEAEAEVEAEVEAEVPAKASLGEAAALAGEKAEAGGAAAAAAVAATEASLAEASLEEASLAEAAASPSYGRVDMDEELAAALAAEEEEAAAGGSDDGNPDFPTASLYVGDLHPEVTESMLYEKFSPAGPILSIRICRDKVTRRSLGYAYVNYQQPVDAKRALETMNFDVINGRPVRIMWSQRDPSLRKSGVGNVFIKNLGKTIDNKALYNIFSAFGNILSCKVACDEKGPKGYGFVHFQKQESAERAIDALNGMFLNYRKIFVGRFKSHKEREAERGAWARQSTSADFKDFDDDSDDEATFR
| Strand | 7-mer Z-score |
| --- | --- |
| CUAGCAC | -0.26 |
| CCCCGGU | -0.421 |
| UGCAUUU | -0.186 |
| GCAAAGG | 0.198 |
| CGGGUGC | -0.0192 |
| AAAACAC | 6.18 |
| UGGAAGC | 0.0261 |
| CCGAUGA | -0.155 |
| CAGUGGA | 0.162 |
| AGGGUCC | 0.00979 |
| AGAGAAC | 0.111 |
| ACGCCUG | -0.17 |
| UCGCCUU | -0.405 |
| AGUCGCU | -0.329 |
| GCAAUAG | -0.0409 |
| UCUGUUU | -0.528 |

Study 4
Target: Histone acetyltransferase KAT6A, both winged helices, GST fusion (KAT6A, Homo sapiens, UniProt Q92794, residues 1-181)
Technique: protein binding microarray
Form: double-stranded DNA, one strand shown
Matrix: in vitro
Concentration: not given
Notes: 8-mer, flanks averaged, mean of 2 arrays, mostly near background
Reference: not given
Reading: higher = stronger binding
Target sequence (chain): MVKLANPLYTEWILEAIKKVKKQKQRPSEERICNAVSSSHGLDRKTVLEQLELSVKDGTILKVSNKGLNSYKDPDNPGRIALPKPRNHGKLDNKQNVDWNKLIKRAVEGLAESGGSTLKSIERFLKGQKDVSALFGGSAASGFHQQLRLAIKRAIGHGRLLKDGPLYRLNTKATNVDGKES
| Strand | E-score |
| --- | --- |
| CAAACGTA | -0.147 |
| AAGATCGT | 0.0763 |
| CTCGGCGA | 0.309 |
| CGCCTCAG | 0.175 |
| CCAAGTGC | -0.0735 |
| ATCTAGCA | -0.153 |
| ATTAGGAG | -0.176 |
| TCAGGACA | -0.179 |
| TCGAATAA | -0.0962 |
| ATTAGACG | 0.0999 |
| CGCTGGAA | 0.15 |
| GTCAGGGA | -0.112 |
| ATCAGGGA | -0.25 |
| GCTCTAGA | -0.0301 |
| CAGCGTTC | 0.0301 |
| GATGCCGC | 0.232 |
| AACTCCAT | -0.073 |
| GTGTGTGA | -0.152 |
| CGGGAGGC | 0.154 |
| CTATGAAA | 0.0025 |
| CGACAACA | 0.108 |
| GGCAACGA | 0.0981 |
| CACTCTTC | -0.153 |
| ATGCGGAA | 0.202 |
| AGTTACCG | 0.113 |

Study 5
Target: Hepatocyte nuclear factor 3-beta, forkhead domain (FOXA2, Homo sapiens, UniProt Q9Y261, residues 142-269)
Technique: protein-binding microarray
Form: double-stranded DNA, one strand shown
Matrix: in vitro
Concentration: not given
Notes: k-mer, scored over probes, only values ≥0.25
Reading: higher = stronger binding
Construct (chain): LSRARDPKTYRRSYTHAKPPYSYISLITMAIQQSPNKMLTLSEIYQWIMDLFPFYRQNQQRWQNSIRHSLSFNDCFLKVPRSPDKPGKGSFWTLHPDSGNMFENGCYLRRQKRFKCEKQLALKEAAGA
| Strand | E-score |
| --- | --- |
| ATTATACC | 0.279 |
| ACTGTATG | 0.291 |
| GGATAAAC | 0.263 |
| ATGTAAGA | 0.272 |
| ACACTATC | 0.285 |
| CAGATATA | 0.265 |
| ATGACAAT | 0.322 |
| AAACGTAA | 0.268 |
| CAAACATA | 0.313 |
| ATGAATAC | 0.253 |
| AAACAGTA | 0.285 |
| ATTGAAAT | 0.288 |
| CTAATACA | 0.303 |
| AGTAAATA | 0.402 |
| GATACAAC | 0.277 |
| ACTTGATA | 0.262 |
| GATTGTCA | 0.256 |
| AATATAAT | 0.278 |
| TCTATGCA | 0.293 |
| TCTATTAA | 0.291 |
| CATGACAC | 0.251 |

Study 6
Target: Interferon regulatory factor 5, full length, phosphomimetic (IRF5, Homo sapiens, UniProt Q13568-2, residues 1-514, S451D/S453D/S456D/S462D)
Technique: protein-binding microarray
Form: double-stranded DNA, one strand shown
Matrix: in vitro
Concentration: 940 nM top
Notes: 60-bp whole probe
Together with: salmon DNA 0.4 mg/ml
Reference: random background probes
Reading: higher = stronger binding
Constant ends, left off below: GCCTAGCAC … GTCTTGATTCGCTTGACGCTGCTG
| Strand | fitted relative affinity [z-score] |
| --- | --- |
| TCATCTCTGCTTCTGTAACTGTGCTAG | 1.12 |
| TTAGGTTTCGGACTGGGGTAGTGCTAG | 7.24 |
| CTAGATATCAGTATCGATTAGTGCTAG | 4.81 |
| TTAGGTCTCCCTATCCTTTAGTGCTAG | 0.621 |
| TTAGGACTGGGGTTCCGGTTAGTGCTA | 0.317 |
| GTGGGACCCATGAACACTCAGTGCTAG | -0.491 |
| GACGGTATCGGTTTCAGGACGTGCTAG | 8.3 |
| GACGGGTCCGGTTTCGGGACGTGCTAG | 3.26 |
| GAGGGTATCCTTCTCCTGACGTGCTAG | 0.168 |
| GACGATATGGGGTATCGAGACGTGCTA | 1.08 |
| TTAGGTCTCGGTCTAGGTTAGTGCTAG | 4.92 |
| TTAGGTATCGACTATCGGATAGTGCTA | 5.67 |
| TTAGGATTGGGGTATCGGTTAGTGCTA | 2.79 |
| TCACATCTGTCATGTTTGACTGTGCTA | -0.0318 |
| TTAGAACTGGGGTTTCGATAAGTGCTA | 4.5 |
| TTAGATTTCAGTTTCGATCAGTGCTAG | 8.98 |
| GACGGGCTGCTTTTCCTGACGTGCTAG | -0.496 |
| TCATCTAAGGATTTCAGACTGTGCTAG | -0.306 |
| TCACCTCTCATTCCAATACTGTGCTAG | 1.66 |
| TGCTTTCTCTTTCACTGCTGGTGCTAG | 3.64 |
| TCAAGTCTTCTCCTCTAACTGTGCTAG | 0.739 |
| GACGGTCGCGGTATCGGGACGTGCTAG | 1.01 |
| TTAGGACTGGGGATCGGTTAGTGCTAG | 0.149 |
| TTAGATCTCAGTCTAGATTAGTGCTAG | 0.0617 |
| TTAGATCTCAGTTTCCATTAGTGCTAG | 1.31 |

A few entries again (study 4):
| Strand | E-score |
| --- | --- |
| CCAAGTGC | -0.0735 |
| ATCTAGCA | -0.153 |
| ATTAGGAG | -0.176 |
| TCAGGACA | -0.179 |
| TCGAATAA | -0.0962 |
| ATTAGACG | 0.0999 |
| CGCTGGAA | 0.15 |
| GTCAGGGA | -0.112 |
| ATCAGGGA | -0.25 |
| GCTCTAGA | -0.0301 |
| CAGCGTTC | 0.0301 |
| GATGCCGC | 0.232 |
| AACTCCAT | -0.073 |
